Measured values of several laboratories.
Each line is one published result; not all experiments were run side by side.
ADORA1: Adenosine receptor A1 (ADORA1, Homo sapiens, UniProt P30542)
Chain of UniProt P30542 (whole entry, looked up): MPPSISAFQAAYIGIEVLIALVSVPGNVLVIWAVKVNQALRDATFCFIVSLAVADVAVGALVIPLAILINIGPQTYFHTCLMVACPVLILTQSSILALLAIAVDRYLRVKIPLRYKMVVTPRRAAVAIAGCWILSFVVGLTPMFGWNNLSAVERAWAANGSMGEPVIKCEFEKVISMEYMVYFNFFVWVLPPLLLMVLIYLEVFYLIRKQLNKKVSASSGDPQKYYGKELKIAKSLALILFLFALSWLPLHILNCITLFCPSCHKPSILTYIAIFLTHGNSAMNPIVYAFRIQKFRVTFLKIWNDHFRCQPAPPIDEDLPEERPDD
Chain of UniProt P54619 (whole entry, unmodified, looked up): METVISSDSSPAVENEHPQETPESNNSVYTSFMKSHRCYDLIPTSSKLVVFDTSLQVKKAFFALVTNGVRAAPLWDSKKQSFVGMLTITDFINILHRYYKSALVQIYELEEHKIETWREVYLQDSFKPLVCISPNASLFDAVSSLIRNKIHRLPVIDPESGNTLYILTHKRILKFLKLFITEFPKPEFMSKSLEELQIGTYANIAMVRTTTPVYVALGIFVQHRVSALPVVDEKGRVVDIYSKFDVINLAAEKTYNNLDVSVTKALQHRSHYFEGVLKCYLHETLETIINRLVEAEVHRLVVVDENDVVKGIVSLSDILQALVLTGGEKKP
Chain of UniProt Q9Y478 (whole entry, unmodified, looked up): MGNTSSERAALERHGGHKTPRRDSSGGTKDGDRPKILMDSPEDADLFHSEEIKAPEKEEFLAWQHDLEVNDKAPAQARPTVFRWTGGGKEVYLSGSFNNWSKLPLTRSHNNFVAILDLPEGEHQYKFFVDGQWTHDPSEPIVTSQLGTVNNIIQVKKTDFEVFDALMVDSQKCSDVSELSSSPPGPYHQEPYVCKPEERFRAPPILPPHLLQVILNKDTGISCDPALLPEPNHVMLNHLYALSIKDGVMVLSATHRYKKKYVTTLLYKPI
Chain of UniProt Q86W56 (whole entry, looked up): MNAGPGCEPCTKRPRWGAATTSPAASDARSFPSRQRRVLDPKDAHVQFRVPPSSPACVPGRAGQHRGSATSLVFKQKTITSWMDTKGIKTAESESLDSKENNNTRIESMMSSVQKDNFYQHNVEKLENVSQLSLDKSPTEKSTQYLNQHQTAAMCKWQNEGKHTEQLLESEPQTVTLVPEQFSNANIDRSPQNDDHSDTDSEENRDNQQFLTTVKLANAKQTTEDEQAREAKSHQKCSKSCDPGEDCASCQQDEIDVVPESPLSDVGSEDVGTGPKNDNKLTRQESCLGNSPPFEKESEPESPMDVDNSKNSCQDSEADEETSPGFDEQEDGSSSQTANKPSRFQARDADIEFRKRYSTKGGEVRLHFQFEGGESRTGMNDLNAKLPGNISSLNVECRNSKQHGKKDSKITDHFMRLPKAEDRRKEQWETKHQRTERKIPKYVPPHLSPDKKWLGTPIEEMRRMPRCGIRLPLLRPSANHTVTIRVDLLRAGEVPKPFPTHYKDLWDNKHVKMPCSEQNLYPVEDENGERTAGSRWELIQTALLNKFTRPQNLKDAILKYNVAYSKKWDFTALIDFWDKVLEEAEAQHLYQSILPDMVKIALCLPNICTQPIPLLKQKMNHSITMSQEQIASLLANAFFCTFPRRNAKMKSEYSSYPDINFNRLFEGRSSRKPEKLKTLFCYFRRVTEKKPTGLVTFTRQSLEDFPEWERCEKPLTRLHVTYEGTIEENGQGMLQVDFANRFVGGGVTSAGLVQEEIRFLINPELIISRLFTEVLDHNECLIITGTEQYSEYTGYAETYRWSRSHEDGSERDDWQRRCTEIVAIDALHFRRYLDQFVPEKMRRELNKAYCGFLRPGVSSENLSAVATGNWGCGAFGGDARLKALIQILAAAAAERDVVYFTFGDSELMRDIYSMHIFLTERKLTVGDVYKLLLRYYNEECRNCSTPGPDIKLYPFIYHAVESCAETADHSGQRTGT
Chain of UniProt Q13131 (whole entry, unmodified, looked up): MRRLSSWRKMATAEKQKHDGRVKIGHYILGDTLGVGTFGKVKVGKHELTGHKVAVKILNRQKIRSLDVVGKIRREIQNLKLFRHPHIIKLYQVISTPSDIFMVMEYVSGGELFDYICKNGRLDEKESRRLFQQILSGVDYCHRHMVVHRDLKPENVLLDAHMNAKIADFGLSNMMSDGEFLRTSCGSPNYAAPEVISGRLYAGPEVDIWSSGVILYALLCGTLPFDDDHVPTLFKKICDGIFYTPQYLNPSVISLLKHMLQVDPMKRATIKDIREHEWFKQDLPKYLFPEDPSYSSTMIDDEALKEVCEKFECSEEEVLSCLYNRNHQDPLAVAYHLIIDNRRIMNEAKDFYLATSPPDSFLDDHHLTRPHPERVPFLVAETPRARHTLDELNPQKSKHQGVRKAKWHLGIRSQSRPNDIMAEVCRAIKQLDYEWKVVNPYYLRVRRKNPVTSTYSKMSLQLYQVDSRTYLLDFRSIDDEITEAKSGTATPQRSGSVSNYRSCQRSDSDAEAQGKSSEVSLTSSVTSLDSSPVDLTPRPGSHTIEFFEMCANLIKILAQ
Chain of UniProt P09038 (whole entry, looked up): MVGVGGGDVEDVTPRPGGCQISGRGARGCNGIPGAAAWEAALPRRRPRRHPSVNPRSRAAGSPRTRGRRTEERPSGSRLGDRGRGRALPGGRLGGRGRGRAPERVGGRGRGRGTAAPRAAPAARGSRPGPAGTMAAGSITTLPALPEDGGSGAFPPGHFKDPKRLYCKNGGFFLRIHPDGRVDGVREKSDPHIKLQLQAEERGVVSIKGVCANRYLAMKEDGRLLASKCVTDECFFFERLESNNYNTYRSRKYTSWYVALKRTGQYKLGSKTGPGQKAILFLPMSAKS
Chain of UniProt P35625 (whole entry, looked up): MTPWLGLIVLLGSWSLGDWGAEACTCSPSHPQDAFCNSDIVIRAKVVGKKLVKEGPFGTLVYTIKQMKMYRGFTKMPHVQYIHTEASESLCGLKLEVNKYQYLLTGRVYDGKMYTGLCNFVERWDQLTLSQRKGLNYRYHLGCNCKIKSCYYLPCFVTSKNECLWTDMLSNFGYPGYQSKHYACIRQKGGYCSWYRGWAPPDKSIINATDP

SMILES = O=C(O)C(CO)NCc1cc(Cl)c(OCc2cccc(-c3ccccc3)c2Br)cc1OCc1cccnc1 (centres unmarked); target = CD274 (Homo sapiens, UniProt Q9NZQ7); test = binding, SPR; Kd = 0.0367 nM
SMILES = CC(=O)N[C@@H]1[C@@H](O[C@@H]2O[C@H](C(=O)O)[C@@H](O[C@@H]3O[C@H](COS(=O)(=O)O)[C@@H](OS(=O)(=O)O)[C@H](O[C@@H]4O[C@H](C(=O)O)[C@@H](O[C@@H]5O[C@H](COS(=O)(=O)O)[C@@H](OS(=O)(=O)O)[C@H](O[C@@H]6O[C@H](C(=O)O)[C@@H](OS(=O)(=O)O)[C@H](OS(=O)(=O)O)[C@H]6OS(=O)(=O)O)[C@H]5NC(C)=O)[C@H](OS(=O)(=O)O)[C@H]4OS(=O)(=O)O)[C@H]3NC(C)=O)[C@H](OS(=O)(=O)O)[C@H]2OS(=O)(=O)O)[C@H](OS(=O)(=O)O)[C@@H](COS(=O)(=O)O)O[C@H]1N=[N+]=[N-]; target = Fibroblast growth factor 2 (Homo sapiens, UniProt P09038); test = ligand displacement, FP; Kd = 93 nM
SMILES = CCCn1c(=O)c2[nH]c(-c3ccc(OCC(=O)NCCNS(=O)(=O)c4cccc5c(N(C)C)cccc45)cc3)nc2n(CCC)c1=O; target = ADORA1; test = CRE reporter gene, antagonist; system = CHO-A1; setting = Gs-mediated enhancement, with: NECA and forskolin; Kd = 49 nM
SMILES = C[n+]1ccc(/C=N/NC(=O)c2cccc(C(=O)N/N=C/c3cc[n+](C)c4ccccc34)n2)c2ccccc21; target = telomeric antiparallel G4 DNA; test = binding, native ESI-MS; system = 100 mM trimethylammonium acetate; setting = 1 mM KCl; Kd = < 1 nM
SMILES = Cc1ccc(Oc2nc3cc(-c4ccc5c(ccn5C)c4)c(Cl)cc3[nH]2)cc1C(=O)O; target = AMP-activated protein kinase (AMPK) alpha-1/beta-1/gamma-1, beta1 residues 185–270 (PRKAG1/PRKAA1/PRKAB1, Homo sapiens, UniProt P54619+Q13131+Q9Y478); test = biolayer interferometry; setting = AMPK complex ΔCBM; Kd = > 25000 nM
SMILES = CCNC(=O)[C@H]1O[C@@H](n2cnc3c(NCCCCNC(=O)CCCCCNC(=O)COc4ccc(/C=C/C5=[N+]6C(=Cc7ccc(-c8cccs8)n7[B-]6(F)F)C=C5)cc4)ncnc32)[C@H](O)[C@@H]1O; target = ADORA1; test = radioligand binding; system = CHO-A1; setting = apparent, from IC50, with: [3H]DPCPX; Kd = 1170 nM
SMILES = CC(=O)N[C@@H]1[C@@H](O[C@@H]2O[C@H](C(=O)O)[C@@H](O[C@@H]3O[C@H](COS(=O)(=O)O)[C@@H](OS(=O)(=O)O)[C@H](O[C@@H]4O[C@H](C(=O)O)[C@@H](OS(=O)(=O)O)[C@H](OS(=O)(=O)O)[C@H]4OS(=O)(=O)O)[C@H]3NC(C)=O)[C@H](OS(=O)(=O)O)[C@H]2OS(=O)(=O)O)[C@H](OS(=O)(=O)O)[C@@H](COS(=O)(=O)O)O[C@H]1N=[N+]=[N-]; target = Metalloproteinase inhibitor 3 (Homo sapiens, UniProt P35625); test = ligand displacement, FP; Kd = 270 nM
SMILES = Cc1ccc(S/N=C/c2c(O)ccc3ccccc23)cc1; target = Poly(ADP-ribose) glycohydrolase (Homo sapiens, UniProt Q86W56); test = isothermal titration calorimetry; Kd = 547 nM

Excerpt of the above:
SMILES = O=C(O)C(CO)NCc1cc(Cl)c(OCc2cccc(-c3ccccc3)c2Br)cc1OCc1cccnc1 (centres unmarked); target = CD274 (Homo sapiens, UniProt Q9NZQ7); test = binding, SPR; Kd = 0.0367 nM
